Experimental data collected from several papers.
Lines come from different studies, so protocols differ. ± gives the spread as reported.
Target: Sodium-dependent serotonin transporter (Slc6a4, Rattus norvegicus, UniProt P31652)
Sequence of UniProt P31652 (whole entry, looked up): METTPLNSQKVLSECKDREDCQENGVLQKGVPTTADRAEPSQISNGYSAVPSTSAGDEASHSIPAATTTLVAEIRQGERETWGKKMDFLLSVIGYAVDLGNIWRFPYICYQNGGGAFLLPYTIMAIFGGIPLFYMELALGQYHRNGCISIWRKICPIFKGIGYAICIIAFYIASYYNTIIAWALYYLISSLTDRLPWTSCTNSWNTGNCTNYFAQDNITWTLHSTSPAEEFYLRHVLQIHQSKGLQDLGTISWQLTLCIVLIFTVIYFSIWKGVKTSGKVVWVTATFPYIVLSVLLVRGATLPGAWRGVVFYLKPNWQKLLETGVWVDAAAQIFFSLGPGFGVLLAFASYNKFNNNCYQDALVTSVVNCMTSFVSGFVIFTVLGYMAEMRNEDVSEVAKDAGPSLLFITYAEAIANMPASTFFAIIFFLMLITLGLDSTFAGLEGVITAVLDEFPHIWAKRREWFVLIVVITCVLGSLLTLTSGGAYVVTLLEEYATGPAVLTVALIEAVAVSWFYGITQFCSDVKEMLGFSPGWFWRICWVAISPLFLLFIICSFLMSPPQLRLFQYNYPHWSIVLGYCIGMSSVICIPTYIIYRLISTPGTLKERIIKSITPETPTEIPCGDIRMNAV

Compound	test	test system	setting	measurement	value
CCN(CC)CCc1c[nH]c2ccccc12	inhibitor	–	–	IC50	258 ± 13 nM
CNC(C)Cc1ccc2c(c1)OCO2 (single isomer, unassigned; (+))	substrate release, releaser	rat brain synaptosomes	with: [3H]5-HT 5 nM	EC50	85 ± 13.3 nM
CNC(C)C(=O)c1ccccc1 (stereo not drawn)	substrate release, releaser	rat brain synaptosomes	with: [3H]5-HT	EC50	5850 nM
Brc1ccc(CN2CCC(CCOC(c3ccccc3)c3ccccc3)CC2)cc1	binding	–	–	Ki	6720 ± 1360 nM
C[C@@H]1N=C(N)O[C@@H]1c1ccc2c(c1)OCO2 (racemic)	substrate release, releaser	rat brain synaptosomes	with: [3H]5-HT 5 nM	EC50	43.9 ± 6.7 nM
CCCC(NCC)C(=O)c1ccc2c(c1)OCO2 (stereo not drawn)	transporter uptake, inhibitor, radiometric	–	–	IC50	383 nM
COC(=O)[C@H]1C(c2ccc(I)cc2)C[C@@H]2CC[C@H]1N2C (stereo partly drawn)	serotonin reuptake, inhibitor	rat brain synaptosomes	–	IC50	1.11 nM
CCC[C@@H](C(=O)c1ccccc1)N1CCCC1	transporter uptake, inhibitor, radiometric	–	–	IC50	> 10000 nM
C[C@@H]1N=C(N)O[C@@H]1c1ccccc1 (racemic)	substrate release, releaser, [3H]5-HT release	rat brain synaptosomes	with: [3H]5-HT 5 nM	EC50	53.2 ± 6.8 nM
COc1ccc2[nH]cc(CCNC(C)C)c2c1	inhibitor	–	–	IC50	5440 ± 377 nM
COC(=O)[C@H]1[C@@H](c2ccc(SC(F)(F)F)cc2)C[C@@H]2CC[C@H]1N2C	–	–	–	Ki	8 ± 2 nM
CNC(C)Cc1ccc2occc2c1 (stereo not drawn)	transporter-mediated release, substrate	rat brain synaptosomes	5 min, with: [3H]5-HT	EC50	64 ± 7 nM
CNCCc1c[nH]c2ccc(OC)cc12	–	–	–	EC50	1110 ± 700 nM
Cc1ccc([C@@H]2OC(N)=N[C@H]2C)cc1 (relative stereo)	substrate release, releaser	rat brain synaptosomes	with: [3H]5-HT 5 nM	EC50	59.9 ± 17.2 nM
CCN(CC)CCc1c[nH]c2ccc(OC)cc12	inhibitor	–	–	IC50	2410 ± 222 nM
COC(=O)[C@H]1[C@@H](c2ccc(SC(C)C)cc2)C[C@@H]2CC[C@H]1N2C	–	–	–	Ki	23 ± 2 nM
CC(C)NCCc1c[nH]c2ccccc12	inhibitor	–	–	IC50	1490 ± 93 nM
COC(=O)[C@H]1[C@@H](c2ccc(Cl)c(Cl)c2)C[C@@H]2CC[C@H]1N2C	ligand displacement, radioligand	–	cell membranes	Ki	10 nM

Some of these lines once more:
Compound	test	test system	setting	measurement	value
Cc1ccc([C@@H]2OC(N)=N[C@H]2C)cc1 (relative stereo)	substrate release, releaser	rat brain synaptosomes	with: [3H]5-HT 5 nM	EC50	59.9 ± 17.2 nM
COC(=O)[C@H]1[C@@H](c2ccc(Cl)c(Cl)c2)C[C@@H]2CC[C@H]1N2C	ligand displacement, radioligand	–	cell membranes	Ki	10 nM
